Published values from different studies.
Every numbered part comes from another study and shows a few of its results, in no order.

Study 1
Target: Histone acetyltransferase KAT6A, both winged helices, GST fusion (KAT6A, Homo sapiens, UniProt Q92794, residues 1-181)
Method: protein binding microarray
Molecule type: double-stranded DNA, one strand shown
Sample: in vitro
Tested at: not given
Notes: 8-mer, flanks averaged, mean of 2 arrays, mostly near background
Reference: not given
Direction: higher = stronger binding
Target sequence (chain): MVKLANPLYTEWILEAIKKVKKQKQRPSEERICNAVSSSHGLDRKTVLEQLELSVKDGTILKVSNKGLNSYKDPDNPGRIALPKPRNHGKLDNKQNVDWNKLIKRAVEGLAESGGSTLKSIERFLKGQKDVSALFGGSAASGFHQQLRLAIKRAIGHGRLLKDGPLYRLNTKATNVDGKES
Strand	E-score
AGGACTTG	-0.195
TACCGGGA	0.213
AAGCCGGC	0.323
TAGAAGAA	-0.201
AGCAGCCG	0.104
CGCTGGAG	-0.0243
CTGCCTCA	-0.195
GATAGTTA	0.0132
ACCCCGAA	0.0792

Study 2
Target: Ras GTPase-activating protein-binding protein 1, C-terminal RGG region (G3BP1, Homo sapiens, UniProt Q13283)
Sequence of UniProt Q13283 (whole entry, looked up): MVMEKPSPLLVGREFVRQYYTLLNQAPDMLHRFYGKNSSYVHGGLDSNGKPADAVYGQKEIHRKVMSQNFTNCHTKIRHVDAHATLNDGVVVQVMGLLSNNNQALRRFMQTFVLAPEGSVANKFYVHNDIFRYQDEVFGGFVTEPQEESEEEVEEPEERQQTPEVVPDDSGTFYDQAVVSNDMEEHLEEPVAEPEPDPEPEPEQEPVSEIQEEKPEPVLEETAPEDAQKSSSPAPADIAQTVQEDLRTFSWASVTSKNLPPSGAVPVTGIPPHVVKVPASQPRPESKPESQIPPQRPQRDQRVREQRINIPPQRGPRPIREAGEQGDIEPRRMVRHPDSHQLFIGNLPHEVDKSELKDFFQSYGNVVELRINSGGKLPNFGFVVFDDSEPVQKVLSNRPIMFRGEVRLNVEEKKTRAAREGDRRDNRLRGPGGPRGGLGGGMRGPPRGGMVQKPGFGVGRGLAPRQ
Method: RNA Bind-n-Seq
Molecule type: RNA
Sample: in vitro
Tested at: 1 µM
Notes: whole 134-nt RNA, ends assumed
Together with: 150 mM KCl
Reference: input library
Direction: higher = stronger binding
All sequences stand within: GGGAGUUCUACAGUCCGACGAUC … UGGAAUUCUCGGGUGUCAAGG
Strand	log2 enrichment
AAGUCCUGUGCUACACAUCGUAUGUACCGAAUCGGCCCGGGGCCCGGGGCCCGGGGAAAGUAUUAUGUUACGCCGUUCGGAUCUGCACUU	-2.29
GCAGGAAGUAAAAACAAAUGGAAAAGCUUCGGAUAGUGGCAGGGGUGGGGGUUGCUAAGGAAAGGGUGGGAUGGGAGUGGGUAAAGAGUU	2.61
UAACUUUAGAGGAGGAUCUGAUGGAUAUGGCAGUGGACGUGGAUUUGGGGAUGGCUAUAAUGGGUAUGGAUGAGGACCUGGAGGUGGCAA	-0.587
AGUCCUGUGCUACACAUCGUAUGUACCGAAUCGGUUUUUUUGGUUUUUUUGGUUUGGAAAGUAUUAUGUUACGCCGUUCGGAUCUGCACU	-1.61
CAAGUCCUGUGCUACACAUCGUAUGUACCGAAUCGGUGGAAAAAAAGGUUUUUGGAAAGUAUUAUGUUACGCCGUUCGGAUCUGCACUUC	-1.68
GAAAUUAUGGAAGUGGAAAUUACAAUGAUUUUGGAAAUUAUAACCAGCAACCUUCUAACUACGGUCCAAUGAAGAGUGGAAACUUUGGUG	-1.76
UCUCUUGCUCAAGUUUUCUCUCACAGAUGACAGCCACCUACCACAUAACAUGACCAGCAAACGGACUGUUCCUAGUCCAGAGGGCCUUGC	0.25
UCAAGUCCUGUGCUACACAUCGUAUGUACCGAAUCGGGUUGGGGUUGGUUGGGGAAAGUAUUAUGUUACGCCGUUCGGAUCUGCACUUCC	0.76

Study 3
Target: Prothrombin, mature alpha-thrombin (F2, Homo sapiens, UniProt P00734)
Method: aptamer microarray, sandwich
Molecule type: DNA with 2'F-ANA
Sample: in vitro
Tested at: 200 nM
Notes: whole 15-mer aptamer, many near background
Together with: Cy3 exosite-II aptamer, 400 nM
Direction: higher = stronger binding
Strand: GGTTGGTGTGGTTGG
Modification	mean fluorescence intensity
2'F-ANA at 2 4 5 7 8 11 12 13 14	45.8 a.u.
2'F-ANA at 1 4 5 12 15	102 a.u.
2'F-ANA at 2 3 6 7 8 9 10 12	351 a.u.
2'F-ANA at 2 4 9 12 13	423 a.u.
2'F-ANA at 1 5 9 10 12 15	47.8 a.u.
2'F-ANA at 4 5 7 8 9 10	48.1 a.u.
2'F-ANA at 4 5 12	161 a.u.
2'F-ANA at 1 2 4 5 6 7 8 14 15	49 a.u.

Single results of other studies
Molecule	target	assay	test system	setting	how to read	measurement	value
PhoQ, residues 284 288 289 292 302 303 SCKMEA	PhoP, residues 12 14 15 18 19 LHHVQ (Escherichia coli, UniProt P23836)	Sort-seq, refers to: YFP reporter	E. coli	PhoQ-PhoP variant library, together with: 10 µM Mg2+	reference: high Mg2+ state, higher = stronger signaling	fold induction	18

Excerpt of the above (study 2):
Strand	log2 enrichment
AAGUCCUGUGCUACACAUCGUAUGUACCGAAUCGGCCCGGGGCCCGGGGCCCGGGGAAAGUAUUAUGUUACGCCGUUCGGAUCUGCACUU	-2.29
GCAGGAAGUAAAAACAAAUGGAAAAGCUUCGGAUAGUGGCAGGGGUGGGGGUUGCUAAGGAAAGGGUGGGAUGGGAGUGGGUAAAGAGUU	2.61
UCUCUUGCUCAAGUUUUCUCUCACAGAUGACAGCCACCUACCACAUAACAUGACCAGCAAACGGACUGUUCCUAGUCCAGAGGGCCUUGC	0.25
